{"data": "Measured values from different studies", "BCHE": "Cholinesterase (BCHE, Homo sapiens, UniProt P06276)", "gag-pol integrase": "Gag-Pol polyprotein, integrase (gag-pol, Human immunodeficiency virus 1, UniProt P12497)", "note": "Lines come from different studies, so protocols differ. Numbers after ± are the reported error.", "UniProt P06276, sequence (whole entry, looked up)": "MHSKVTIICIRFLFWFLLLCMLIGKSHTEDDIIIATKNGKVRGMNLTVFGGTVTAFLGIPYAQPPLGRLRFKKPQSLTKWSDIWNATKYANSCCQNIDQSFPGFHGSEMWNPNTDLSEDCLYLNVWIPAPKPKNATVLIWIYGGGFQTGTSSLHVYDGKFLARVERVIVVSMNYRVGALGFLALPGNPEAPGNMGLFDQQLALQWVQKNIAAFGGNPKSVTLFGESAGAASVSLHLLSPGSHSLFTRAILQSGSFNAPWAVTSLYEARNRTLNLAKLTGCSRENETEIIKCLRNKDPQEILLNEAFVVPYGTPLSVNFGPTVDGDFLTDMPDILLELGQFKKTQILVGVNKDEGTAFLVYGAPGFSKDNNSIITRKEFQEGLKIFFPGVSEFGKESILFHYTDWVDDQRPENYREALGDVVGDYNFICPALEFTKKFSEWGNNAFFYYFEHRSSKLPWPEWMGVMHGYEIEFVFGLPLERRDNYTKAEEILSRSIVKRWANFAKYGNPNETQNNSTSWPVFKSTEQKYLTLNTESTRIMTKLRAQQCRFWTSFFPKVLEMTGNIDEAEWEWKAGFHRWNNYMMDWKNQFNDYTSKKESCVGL", "UniProt P06401, sequence (whole entry, looked up)": "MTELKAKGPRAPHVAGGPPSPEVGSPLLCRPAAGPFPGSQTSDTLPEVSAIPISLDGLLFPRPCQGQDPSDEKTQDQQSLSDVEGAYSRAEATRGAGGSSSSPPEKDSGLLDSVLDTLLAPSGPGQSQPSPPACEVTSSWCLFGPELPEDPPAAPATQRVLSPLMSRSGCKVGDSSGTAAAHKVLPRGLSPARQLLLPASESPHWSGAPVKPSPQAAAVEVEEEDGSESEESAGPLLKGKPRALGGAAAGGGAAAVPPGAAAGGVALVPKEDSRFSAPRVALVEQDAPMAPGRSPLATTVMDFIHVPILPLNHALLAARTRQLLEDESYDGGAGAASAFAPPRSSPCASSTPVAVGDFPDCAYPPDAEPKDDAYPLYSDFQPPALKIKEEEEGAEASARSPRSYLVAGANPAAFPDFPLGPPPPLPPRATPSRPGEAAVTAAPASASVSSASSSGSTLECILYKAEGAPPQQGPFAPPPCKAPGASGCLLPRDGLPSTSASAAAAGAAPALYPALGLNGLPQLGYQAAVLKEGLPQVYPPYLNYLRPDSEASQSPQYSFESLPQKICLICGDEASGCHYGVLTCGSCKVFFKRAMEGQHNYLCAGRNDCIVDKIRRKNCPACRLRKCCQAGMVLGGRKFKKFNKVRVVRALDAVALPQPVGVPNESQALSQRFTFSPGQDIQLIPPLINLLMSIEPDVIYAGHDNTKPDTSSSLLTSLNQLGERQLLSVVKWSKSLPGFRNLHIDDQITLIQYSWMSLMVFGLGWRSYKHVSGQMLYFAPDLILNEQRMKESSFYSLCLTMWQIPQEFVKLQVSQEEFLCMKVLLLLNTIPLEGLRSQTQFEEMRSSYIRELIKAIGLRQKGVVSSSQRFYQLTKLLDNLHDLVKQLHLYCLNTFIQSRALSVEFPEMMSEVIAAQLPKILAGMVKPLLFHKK", "UniProt O75116, sequence (whole entry, looked up)": "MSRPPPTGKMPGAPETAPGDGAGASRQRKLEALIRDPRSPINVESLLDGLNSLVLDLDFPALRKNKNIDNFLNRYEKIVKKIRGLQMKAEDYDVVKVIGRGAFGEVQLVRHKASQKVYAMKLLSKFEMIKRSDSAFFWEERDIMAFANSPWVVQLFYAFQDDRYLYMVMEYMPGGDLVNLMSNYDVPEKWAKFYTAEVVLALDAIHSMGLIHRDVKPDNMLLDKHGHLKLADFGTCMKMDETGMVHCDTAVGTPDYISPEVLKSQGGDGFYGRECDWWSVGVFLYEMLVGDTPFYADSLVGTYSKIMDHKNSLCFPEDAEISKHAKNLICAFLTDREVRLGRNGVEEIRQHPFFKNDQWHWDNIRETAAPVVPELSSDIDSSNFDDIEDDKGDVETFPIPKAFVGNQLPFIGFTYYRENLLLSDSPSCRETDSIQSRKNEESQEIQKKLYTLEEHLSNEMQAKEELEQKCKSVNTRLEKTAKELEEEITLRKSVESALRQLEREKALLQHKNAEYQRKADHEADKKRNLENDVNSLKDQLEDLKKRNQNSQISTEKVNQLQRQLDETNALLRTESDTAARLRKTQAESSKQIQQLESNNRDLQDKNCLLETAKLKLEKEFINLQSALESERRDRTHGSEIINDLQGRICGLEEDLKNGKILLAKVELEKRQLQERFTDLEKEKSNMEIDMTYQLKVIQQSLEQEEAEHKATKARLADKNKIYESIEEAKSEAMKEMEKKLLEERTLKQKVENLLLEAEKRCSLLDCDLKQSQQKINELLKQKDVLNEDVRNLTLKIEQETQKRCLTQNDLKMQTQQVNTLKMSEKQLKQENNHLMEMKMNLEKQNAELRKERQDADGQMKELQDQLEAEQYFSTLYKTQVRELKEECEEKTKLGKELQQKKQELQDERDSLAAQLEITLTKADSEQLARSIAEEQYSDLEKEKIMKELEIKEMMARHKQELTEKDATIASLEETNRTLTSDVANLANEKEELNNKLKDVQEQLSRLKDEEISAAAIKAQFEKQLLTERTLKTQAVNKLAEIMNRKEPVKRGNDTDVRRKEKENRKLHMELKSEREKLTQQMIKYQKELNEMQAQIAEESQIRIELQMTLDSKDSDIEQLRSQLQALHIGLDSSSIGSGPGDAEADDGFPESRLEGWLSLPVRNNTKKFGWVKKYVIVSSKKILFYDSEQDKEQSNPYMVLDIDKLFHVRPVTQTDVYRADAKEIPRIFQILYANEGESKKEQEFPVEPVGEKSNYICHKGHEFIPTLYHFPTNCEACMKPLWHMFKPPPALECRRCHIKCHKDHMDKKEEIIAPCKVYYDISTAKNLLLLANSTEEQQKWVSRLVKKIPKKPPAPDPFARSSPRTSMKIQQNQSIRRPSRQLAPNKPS", "UniProt P35462, sequence (whole entry, looked up)": "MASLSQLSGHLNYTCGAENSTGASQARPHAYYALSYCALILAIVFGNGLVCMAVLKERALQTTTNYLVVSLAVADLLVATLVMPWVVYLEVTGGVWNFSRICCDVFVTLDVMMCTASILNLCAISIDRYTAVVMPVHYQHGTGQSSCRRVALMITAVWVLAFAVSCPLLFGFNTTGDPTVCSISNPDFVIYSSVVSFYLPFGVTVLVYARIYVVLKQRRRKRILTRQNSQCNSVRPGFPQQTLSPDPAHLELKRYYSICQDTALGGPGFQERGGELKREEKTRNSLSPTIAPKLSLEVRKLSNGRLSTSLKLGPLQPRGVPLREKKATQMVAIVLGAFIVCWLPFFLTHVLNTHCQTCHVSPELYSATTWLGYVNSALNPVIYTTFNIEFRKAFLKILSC", "UniProt P51813, sequence (whole entry, looked up)": "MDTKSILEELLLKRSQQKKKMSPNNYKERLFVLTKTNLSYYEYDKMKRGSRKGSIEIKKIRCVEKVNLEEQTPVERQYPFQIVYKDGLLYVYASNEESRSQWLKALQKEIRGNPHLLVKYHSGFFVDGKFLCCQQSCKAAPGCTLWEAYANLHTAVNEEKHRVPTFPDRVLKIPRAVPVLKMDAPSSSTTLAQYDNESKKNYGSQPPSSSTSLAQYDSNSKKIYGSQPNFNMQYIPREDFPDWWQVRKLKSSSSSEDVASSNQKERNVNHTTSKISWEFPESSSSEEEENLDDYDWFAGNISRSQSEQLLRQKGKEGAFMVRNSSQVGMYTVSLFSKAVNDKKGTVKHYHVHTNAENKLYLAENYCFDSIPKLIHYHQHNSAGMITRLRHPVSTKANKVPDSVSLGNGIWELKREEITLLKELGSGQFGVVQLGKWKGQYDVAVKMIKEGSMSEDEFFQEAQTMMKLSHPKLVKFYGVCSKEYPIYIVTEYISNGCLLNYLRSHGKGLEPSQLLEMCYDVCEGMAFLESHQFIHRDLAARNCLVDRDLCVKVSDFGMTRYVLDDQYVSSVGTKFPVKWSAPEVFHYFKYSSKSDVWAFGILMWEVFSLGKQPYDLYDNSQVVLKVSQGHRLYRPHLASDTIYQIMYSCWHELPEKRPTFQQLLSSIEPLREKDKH"}
{"SMILES": "CC1(N2CCC(n3c([C@@H]4CCCNC4)nc4ccccc43)CC2)CCCCCCC1", "target": "BCHE", "test": "inhibitor", "conditions": "with Triton", "endpoint": "IC50", "result": "11.4 ± 8.46 µM"}
{"SMILES": "COc1ccccc1N1CCN(/N=C/c2ccc(Cl)c([N+](=O)[O-])c2)CC1", "target": "gag-pol integrase", "test": "strand transfer activity, inhibitor", "conditions": "wild-type integrase", "endpoint": "IC50", "result": "> 100 µM"}
{"SMILES": "Cc1[nH]c(C)c(S(=O)(=O)Nc2ccc(S(F)(F)(F)(F)F)cc2)c1C(=O)N1CCC(F)(F)C1", "target": "DRD3 (Homo sapiens, UniProt P35462)", "test": "allosteric modulator, radioligand binding", "conditions": "together with: pramipexole", "endpoint": "Kb", "result": "4.6 µM"}
{"SMILES": "CN1CCC[C@@H]1Cc1c[nH]c2ccc(CCS(=O)(=O)c3ccccc3)cc12", "target": "BCHE", "test": "inhibitor", "conditions": "with Triton", "endpoint": "IC50", "result": "16.1 ± 9.71 µM"}
{"SMILES": "COc1c(Cl)cc(Cl)cc1/C=N/NC(=O)c1ccncc1", "target": "Gag-Pol polyprotein, integrase with LEDGF/p75 (gag-pol, Human immunodeficiency virus 1, UniProt P12497)", "test": "LEDGF/p75-integrase interaction, inhibitor, AlphaScreen", "endpoint": "IC50", "result": "> 50 µM"}
{"SMILES": "COc1cc(Nc2ncc(F)c(Nc3ccc4c(n3)NC(=O)C(C)(C)O4)n2)cc(OC)c1OC", "target": "histone deacetylase", "test": "enzyme activity, inhibitor", "endpoint": "IC50", "result": "> 10 µM"}
{"SMILES": "COc1ncccc1-c1cnn2ccc(N3CCN(C(=O)OC(C)C)CC3)nc12", "target": "PGR (Homo sapiens, UniProt P06401)", "test": "liability screen", "endpoint": "IC50", "result": "94 µM"}
{"SMILES": "C[C@H](NC(=O)[C@@H](NC(=O)[C@H](CO)NC(=O)[C@H](Cc1c[nH]cn1)NC(=O)[C@@H]1CCCN1C(=O)[C@H](CC(=O)O)NC(=O)[C@H](CCC(N)=O)NC(=O)[C@H](Cc1ccc(OP(=O)(O)O)cc1)NC(=O)[C@H](Cc1c[nH]cn1)NC(=O)[C@@H]1CCCN1C(=O)[C@H](CC(=O)O)NC(=O)[C@H](CCCNC(=N)N)NC(=O)[C@H](CO)NC(=O)[C@@H]1CCCN1C(=O)[C@H](C)NC(=O)[C@@H]1CCCN1C(=O)[C@H](CC(N)=O)NC(=O)c1ccc2c(c1)C(=O)OC21c2ccc(N(C)C)cc2Oc2cc(N(C)C)ccc21)[C@@H](C)O)C(=O)N[C@@H](CC(=O)O)C(=O)O", "target": "Cytoplasmic tyrosine-protein kinase BMX, SH2 domain (BMX, Homo sapiens, UniProt P51813)", "test": "binding", "endpoint": "Kd", "result": "1.07 µM"}
{"SMILES": "CCOc1cccc(/C=N/NC(=O)c2n[nH]c3c2CCC3)c1O", "target": "gag-pol integrase", "test": "strand transfer activity, inhibitor", "conditions": "wild-type integrase", "endpoint": "IC50", "result": "> 100 µM"}
{"SMILES": "C[C@H]1CN(c2n[nH]c3nc(N[C@H]4CC[C@H](NS(=O)(=O)CCC(F)(F)F)CC4)ncc23)CCO1", "target": "ROCK2 (Homo sapiens, UniProt O75116)", "test": "biochemical", "endpoint": "IC50", "result": "≥ 20 µM"}
{"SMILES": "CN1C2CCCC1CC(NC(=O)c1nn(C)c3ccccc13)C2 (centres unmarked)", "target": "Soluble acetylcholine receptor (Aplysia californica, UniProt Q8WSF8, D181E/K160T/Q74R/S111E/V159L)", "test": "homologous radioligand competition", "endpoint": "Kd", "result": "0.359 ± 0.013 µM"}
{"note": "For quick reference, copied from above:"}
{"SMILES": "CN1CCC[C@@H]1Cc1c[nH]c2ccc(CCS(=O)(=O)c3ccccc3)cc12", "target": "BCHE", "test": "inhibitor", "conditions": "with Triton", "endpoint": "IC50", "result": "16.1 ± 9.71 µM"}
{"SMILES": "COc1c(Cl)cc(Cl)cc1/C=N/NC(=O)c1ccncc1", "target": "Gag-Pol polyprotein, integrase with LEDGF/p75 (gag-pol, Human immunodeficiency virus 1, UniProt P12497)", "test": "LEDGF/p75-integrase interaction, inhibitor, AlphaScreen", "endpoint": "IC50", "result": "> 50 µM"}
